Published values gathered from unrelated publications.
Compare with care: the assays were run in different laboratories. ± marks the error that the study gave.

COc1ccc(NC(=O)c2ccc3[nH]c(-c4ccc(N(C)C)cc4)nc3c2)cn1  EC50 (YAPC; cell growth, CellTiter-Glo): 5710 nM
Cc1ncsc1-c1ccc(C(C)NC(=O)C2CC(O)CN2C(=O)C(NC(=O)CCCCCCCCCCN2CCCC(Nc3ncc(Cl)c(Nc4ccccc4S(=O)(=O)C(C)C)n3)C2)C(C)(C)C)cc1 (stereo not shown)  log2 fold change (22Rv1; RNA-seq, item: TEF mRNA; concentration not given; reference: DMSO): -2.18
N#Cc1c(Nc2ccccc2C(F)(F)F)s[nH]c1=O  EC50 (human iPSC-derived motor neurons; protection from axon fragmentation; 16 h, after axotomy): 5000 nM
Cc1ccncc1.[Cl-].[Cl-].[Ru+2].c1cc(-c2ccc3cccnc3n2)nc(-c2ccc3cccnc3n2)c1.c1ccc2cc3nc4c5cccnc5c5ncccc5c4nc3cc2c1  EC50 (SK-MEL-28; cell viability; dark, hypoxia 1 % oxygen): 67900 ± 800 nM
Nc1ncc(-c2cc(-c3cnn(CC(F)(F)F)c3)ncc2F)nc1C(=O)NC1CNCC(F)C1 (stereo not shown)  remaining binding (PIK3CD; KINOMEscan; 1 µM; reference: DMSO control): 83%
CC(=O)N(C)Cc1cccc(-c2cc3c(c(C(F)(F)F)c2)CCCC3N(C)C(=O)CCOCCOCCC(=O)N(C)C2CCCc3c2cc(-c2cccc(CN(C)C(C)=O)c2)cc3C(F)(F)F)c1 (stereo not shown)  EC50 (CHO EIF2B4 L180F mutant; CHOP::GFP reporter, activator, flow cytometry): 22600 nM
COc1ccc(N(CC2CC2)S(=O)(=O)C2CC3OC2C(c2ccc(O)cc2)=C3c2ccc(O)cc2)cc1 (stereo not shown)  EC50 (MCF7 3xERE-luc, steroid-deprived; ERE luciferase reporter, agonist): 126 nM
CN(C)Cc1nc(Nc2ccc(-c3cnc4cc(F)ccn34)c3c2C(=O)NC3)ccc1C1CCOC1 (stereo not shown)  EC50 (human CD8 T cells; cytokine induction, item: IL-2; with: anti-CD3/CD28): 13 nM
CC[C@H]1CC[C@H]2[C@@H]3C[C@@H](O)[C@@]4(O)C[C@H](N)CC[C@]4(C)[C@H]3CC[C@]12C  EC50 (HMC3; phagocytosis, high-content imaging; geometric mean, with: pHrodo-myelin uptake): 117 nM
O=S(=O)(C1CC2OC1C(c1ccc(O)cc1)=C2c1ccc(O)cc1)N1CCc2ccccc21 (stereo not shown)  EC50 (MCF7 3xERE-luc, steroid-deprived; ERE luciferase reporter, agonist): 25.1 nM
CC[C@H]1CN([C@@H](CC)c2ccc(C(F)(F)F)cc2)[C@H](CC)CN1c1nc(=O)n(C)c2ccc(C#N)nc12  EC50 (human CD4+ T cells; protein phosphorylation, phosphoproteomics, item: SAMD1 phosphosite; 1 h, stimulation 60 min): 11.7 nM
COC1CN([C@H]2CC[C@H]([C@@]3(C)Oc4c(Cl)cc(C(=O)NCc5c(SC)cc(C)[nH]c5=O)c(C)c4O3)CC2)C1  log2 fold change (RNA-seq, item: AFAP1L1 mouse homolog; mouse, HT-1376 xenograft, whole blood; dose not given; reference: vehicle): 1.14
C=C(NC(=O)c1csc(-c2cccnc2)n1)C(=O)NC(=C)C(=O)OC  EC50 (SCC-61; cell viability): 8400 nM
COc1ccc(N(C2CCCCC2)S(=O)(=O)C2CC3OC2C(c2ccc(O)cc2)=C3c2ccc(O)cc2)cc1 (stereo not shown)  EC50 (MCF7 3xERE-luc, steroid-deprived; ERE luciferase reporter, agonist): 31.6 nM
CN1CCCNC(=O)c2cccc(c2)C(=O)NCCCN(C)CCCNc2cccc3c2C(=O)c2cccc(c2C3=O)NCCC1  log2 fold change (SAS; RNA-Seq, item: SLC9A1 mRNA; 1 µM, 6 h; reference: untreated cells): -0.962
C=CC(=O)Nc1cccc(Cn2ncc3cnc(Nc4cnn(CCOC)c4)nc32)c1  percent of control (EPHA1 human; binding, KINOMEscan; 100 nM; lower = stronger binding): 31%

Some of these lines once more:
Cc1ccncc1.[Cl-].[Cl-].[Ru+2].c1cc(-c2ccc3cccnc3n2)nc(-c2ccc3cccnc3n2)c1.c1ccc2cc3nc4c5cccnc5c5ncccc5c4nc3cc2c1  EC50 (SK-MEL-28; cell viability; dark, hypoxia 1 % oxygen): 67900 ± 800 nM
Nc1ncc(-c2cc(-c3cnn(CC(F)(F)F)c3)ncc2F)nc1C(=O)NC1CNCC(F)C1 (stereo not shown)  remaining binding (PIK3CD; KINOMEscan; 1 µM; reference: DMSO control): 83%
